Assay results gathered from unrelated publications.
A part holds a random share of what one study measured. Changes are numbered by the printed parent chain.

Study 1 — technique: competition protein-binding microarray; molecule type: double-stranded DNA, one strand shown; sample: in vitro; tested at: 2 µM; with: Pho4 competitor, 0.05 µM; reading: higher = stronger binding; measurement: fluorescence intensity; all sequences stand within: … GTCTTGATTCGCTTGACGCTGCTG
Target: Centromere-binding protein 1, full length, His-tagged (CBF1, Saccharomyces cerevisiae, UniProt P17106, residues 1-351)
Chain of UniProt P17106 (whole entry, looked up): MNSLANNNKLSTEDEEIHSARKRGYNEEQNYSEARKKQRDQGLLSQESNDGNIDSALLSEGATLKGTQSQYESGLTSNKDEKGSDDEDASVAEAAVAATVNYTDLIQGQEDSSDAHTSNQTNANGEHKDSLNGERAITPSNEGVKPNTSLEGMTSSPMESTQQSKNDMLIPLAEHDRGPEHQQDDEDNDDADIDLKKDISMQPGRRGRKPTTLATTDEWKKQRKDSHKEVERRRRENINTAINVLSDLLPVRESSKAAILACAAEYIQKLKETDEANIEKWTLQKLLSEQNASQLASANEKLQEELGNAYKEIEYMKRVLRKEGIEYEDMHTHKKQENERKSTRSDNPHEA
Notes: whole 60-bp probe, lowest competitor level
CGTCCTAGCGATTAACACGTGTTTTCCATGAGGAAG: 2500 a.u.
CTAACGAAGGTTTGTCACTCAACTTACAAGCCAAGT: 74.8 a.u.
CTTCTGTAAATTTGCGCGGTGGGTGGACGCGCCCCG: 94.4 a.u.
CCAGTCTCTGTCTTGCGCGTGCAAATAAGTGCCGGC: 103 a.u.
GTCTTGTCTCATTGTGCCGTGGGTGTCCCCACTTCA: 101 a.u.
AAGATAATGCTTTCACACGTGCAAAATAAAATAGTA: 2570 a.u.

Study 2 — technique: RNA Bind-n-Seq; molecule type: RNA; sample: in vitro; tested at: 365 nM; reference: no-protein control; reading: higher = stronger binding; measurement: RBNS enrichment (R)
Target: RNA binding protein fox-1 homolog 2, RRM domain, GST-SBP tag (RBFOX2, Homo sapiens, UniProt O43251-10, residues 100-194)
Notes: natural RNA segment, single round, ends assumed
All sequences stand within: GGGAGUUCUACAGUCCGACGAUC … UGGAAUUCUCGGGUGCCAA
Construct (chain): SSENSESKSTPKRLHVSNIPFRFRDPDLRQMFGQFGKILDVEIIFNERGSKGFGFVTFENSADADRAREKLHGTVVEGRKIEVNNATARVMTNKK
AUCUUUCUUCCCGCCGCUUGGCUUGAGCCAAGUUUUGUUUUAUAUUAAAAAAGUAUAUAUAAUUAUAUAAAGUUCUUGGAGUCUGCACCGCCAGUGUCGGGAAUGGACCU: 1.46
UGCCUAAUUUCUGUGAUUUCCAACCAACAUGAAAUGACUAUAAAUGGUUUUUUAAUGAAAAAAGAAAUCACUUUUAUUGGCUUGGUUUUCUAGCAUUGCUGGUGCAGUGG: 0.291
GUACCCAAAUUAAAAUCCUGAUGUUCAGGUUAAUCCAAGCAACACGCAUUGGGUUUAAAACCAGCACCGAGGCCCAGUGGGGGAAUCACAGACAUCACCAAGUCUCGUCU: 0.288
GAUACCCAUUUCACCCCAGCGUCUAUAGGAAUCCACACGGGAAUGGUUCAGAGUUAGCAGCUGUUUCUAAGGAAAUGCUGUUCAGAUGCCUCCUAACUUUUAUAGUUAUU: 0.362
AGCUCUGUGCACCUGUGUGUGAUACCUCACACUCGUGCUUUGUCCUCCACUGUCUAUGUAGGUUGUGGGUGUGGGGAGGUUGAGGUAGAGGGAAGAGGGUCGAGAGGGUU: 0.666
AAUCUCCUGGGAGCAGGGCACAGGGAAGACUAUGAGGAGAGCUAAUGUGGUCUGUACAAGGACACUGGAGGAAGUAUGUUUGCUACCUGUAAGUUCUAAAUGUGUACUCC: 0.571

Study 3 — technique: DHFR PCA, deep sequencing; sample: yeast; with: (+)-ABA 0.0091 µM; reference: wild-type fitted maximum; reading: higher = stronger binding; measurement: relative binding score
Target: ABI1, truncated, D143A, DHFR fusion (Arabidopsis thaliana)
Notes: methotrexate growth selection, single substitutions
Starting sequence: PYL1, truncated, DHFR fusion (Arabidopsis thaliana); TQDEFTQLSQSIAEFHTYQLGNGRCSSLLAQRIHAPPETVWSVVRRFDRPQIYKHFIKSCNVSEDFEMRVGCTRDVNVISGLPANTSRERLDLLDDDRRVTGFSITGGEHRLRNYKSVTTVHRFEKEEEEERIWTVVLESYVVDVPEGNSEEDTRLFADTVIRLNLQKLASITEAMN; partner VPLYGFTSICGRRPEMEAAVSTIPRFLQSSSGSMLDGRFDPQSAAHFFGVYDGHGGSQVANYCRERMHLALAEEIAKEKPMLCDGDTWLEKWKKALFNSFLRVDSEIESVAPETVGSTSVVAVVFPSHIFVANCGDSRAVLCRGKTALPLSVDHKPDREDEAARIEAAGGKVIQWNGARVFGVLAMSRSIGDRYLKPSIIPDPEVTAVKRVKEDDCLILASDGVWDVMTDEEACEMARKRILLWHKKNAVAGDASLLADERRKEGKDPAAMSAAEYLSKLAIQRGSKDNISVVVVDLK
C60H: -5.86%
H122R: 0.253%
W134K: 1.5%

Single results of other studies
PhoQ, residues 284 288 289 292 302 303 SMYGEC
fold induction (PhoP, residues 12 14 15 18 19 LYHSL (Escherichia coli, UniProt P23836); Sort-seq, item: YFP reporter; E. coli; PhoQ-PhoP variant library, with: 10 µM Mg2+; reference: high Mg2+ state, higher = stronger signaling): 3.48

For quick reference, copied from above (study 3):
W134K: 1.5%
H122R: 0.253%
